Assay results pooled from the literature.
A part holds a random share of what one study measured. Substitutions count along the parent as printed.

Sample 1 — target: CRIPT, C-terminal peptide; method: DHFR complementation, deep sequencing; sample: yeast; reference: wild type; reading: higher = weaker binding
Notes: single substitutions, model-inferred values
Parent: ERBIN, PDZ domain 1 (human); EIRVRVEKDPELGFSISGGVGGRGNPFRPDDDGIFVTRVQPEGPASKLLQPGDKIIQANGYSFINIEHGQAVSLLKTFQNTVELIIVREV; partner TKNYKQTSV
Change | binding free energy change
I2G | 0.519 kcal/mol
G69I | 0.161 kcal/mol
P10R | -0.785 kcal/mol
A45Q | 1.54 kcal/mol
R88P | 0.434 kcal/mol
P41T | 0.267 kcal/mol
I55N | 0.505 kcal/mol
Y61N | 0.0491 kcal/mol
G22A | -0.854 kcal/mol
G22S | -0.433 kcal/mol
L74M | -0.0531 kcal/mol
L48G | 0.233 kcal/mol
A58S | 0.152 kcal/mol
P10F | -0.428 kcal/mol
S17A | -0.146 kcal/mol
Y61S | 0.0142 kcal/mol
A71T | 0.831 kcal/mol
E42I | 0.358 kcal/mol
K76F | 0.745 kcal/mol
F63I | -0.135 kcal/mol
R38N | 0.221 kcal/mol
V90D | -0.0103 kcal/mol
A45I | 1.15 kcal/mol
V87S | 0.0264 kcal/mol
N80R | 0.0165 kcal/mol

Sample 2 — method: protein binding microarray; molecule type: double-stranded DNA, one strand shown; sample: in vitro; tested at: not given; reference: not given; reading: higher = stronger binding
Target: Histone acetyltransferase KAT6A, both winged helices, GST fusion (KAT6A, Homo sapiens, UniProt Q92794, residues 1-181)
Notes: 8-mer, flanks averaged, mean of 2 arrays, mostly near background
Target sequence (chain): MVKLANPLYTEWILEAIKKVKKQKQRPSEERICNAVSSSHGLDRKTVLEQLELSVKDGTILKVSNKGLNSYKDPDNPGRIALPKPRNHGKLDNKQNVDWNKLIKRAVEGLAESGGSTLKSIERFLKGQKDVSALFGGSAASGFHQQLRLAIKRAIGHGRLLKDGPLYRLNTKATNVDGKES
Oligonucleotide | E-score
AACTAATA | -0.0111
AGCTGACA | -0.0638
ACATCACA | -0.145
GTCTGATA | 0.0336
GAGGCGGC | 0.273
AGACACGG | 0.227
AATTACAT | -0.0186
CGAACGTC | 0.0174
ACGTACAG | -0.134
AGGTAATA | -0.0753
GGATCTAA | 0.031
AGGGCATA | -0.256
AGGCGTAA | -0.0529
TATTCCCA | -0.102
CTAAACAC | 0.00516
ATTGATAC | 0.121
TATTTGCA | -0.217
GCTCTTTA | 0.0274
AAATAACG | 0.034
AACTCCGT | 0.127
CAGAGGAG | -0.237
CAGCAACG | 0.0123
AGACTGGA | -0.169
AAAAGGTG | -0.139
CCTACACC | -0.215

Sample 3 — method: universal PBM; molecule type: double-stranded DNA, one strand shown; sample: in vitro; tested at: 600 nM; reading: higher = stronger binding
Target: Sal-like protein 4, full length isoform A (SALL4, Homo sapiens, UniProt Q9UJQ4, residues 1-1053)
UniProt Q9UJQ4, sequence (whole entry, looked up): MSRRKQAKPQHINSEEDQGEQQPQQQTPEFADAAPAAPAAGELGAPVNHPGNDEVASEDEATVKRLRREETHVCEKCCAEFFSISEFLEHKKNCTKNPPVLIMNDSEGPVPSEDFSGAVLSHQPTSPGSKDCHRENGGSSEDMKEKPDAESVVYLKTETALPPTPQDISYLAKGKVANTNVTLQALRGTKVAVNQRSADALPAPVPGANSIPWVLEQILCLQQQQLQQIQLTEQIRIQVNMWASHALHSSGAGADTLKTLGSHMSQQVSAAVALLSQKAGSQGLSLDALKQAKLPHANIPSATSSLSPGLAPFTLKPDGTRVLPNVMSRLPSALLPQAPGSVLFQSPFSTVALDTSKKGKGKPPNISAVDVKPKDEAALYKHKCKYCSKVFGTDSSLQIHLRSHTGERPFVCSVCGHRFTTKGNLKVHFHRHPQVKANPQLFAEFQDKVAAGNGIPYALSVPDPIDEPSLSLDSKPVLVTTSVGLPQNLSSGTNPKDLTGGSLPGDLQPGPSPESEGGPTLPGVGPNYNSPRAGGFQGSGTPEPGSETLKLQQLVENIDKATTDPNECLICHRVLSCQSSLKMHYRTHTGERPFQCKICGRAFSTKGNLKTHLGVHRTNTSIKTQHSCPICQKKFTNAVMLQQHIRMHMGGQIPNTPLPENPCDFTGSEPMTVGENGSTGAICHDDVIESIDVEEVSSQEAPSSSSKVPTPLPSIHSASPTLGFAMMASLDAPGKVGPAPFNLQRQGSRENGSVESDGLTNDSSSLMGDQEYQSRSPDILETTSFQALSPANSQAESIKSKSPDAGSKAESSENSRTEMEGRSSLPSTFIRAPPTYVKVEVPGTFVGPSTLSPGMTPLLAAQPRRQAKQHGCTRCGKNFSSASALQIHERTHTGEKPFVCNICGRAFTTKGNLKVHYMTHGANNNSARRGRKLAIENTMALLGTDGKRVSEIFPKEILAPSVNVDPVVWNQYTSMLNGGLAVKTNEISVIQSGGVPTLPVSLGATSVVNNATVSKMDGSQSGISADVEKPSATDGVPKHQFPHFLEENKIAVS
Notes: 8-mer, flanks averaged, mean of replicates
Oligonucleotide | E-score
ACCTGCCT | -0.186
GTCATCCA | -0.0802
ACCATATC | 0.0985
CATTTGCC | -0.253
CGTGACGC | -0.0621
TGGAGAAA | 0.00513
TCCCTCGA | -0.19
ACTGCGCC | -0.367
AAAACTGC | 0.0234
TCGTTCAA | 0.189
GGTGCATA | 0.0689
GTGTTTTA | 0.225
CTTAAAGC | -0.0427
ATTGTCTC | 0.0337
CTTAGAAG | -0.0167
AGCGAGAT | 0.0431
AGTCCCAG | -0.277
AGATGGCA | 0.0387
CTACTCAA | 0.215
CCAACGTC | -0.246
AAAAACAA | 0.264
GCGTCAGC | -0.246
AGACGAAT | 0.18

Sample 4 — method: RNA Bind-n-Seq; molecule type: RNA; sample: in vitro; tested at: 365 nM; reference: no-protein control; reading: higher = stronger binding
Target: RNA binding protein fox-1 homolog 2, RRM domain, GST-SBP tag (RBFOX2, Homo sapiens, UniProt O43251-10, residues 100-194)
Notes: natural RNA segment, single round, ends assumed
Target sequence (chain): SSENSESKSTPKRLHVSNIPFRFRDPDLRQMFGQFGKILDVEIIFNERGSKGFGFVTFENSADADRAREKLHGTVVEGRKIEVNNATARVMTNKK
Oligonucleotide | RBNS enrichment (R)
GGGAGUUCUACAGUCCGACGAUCUGCUGUGGGAGUUUCUAGAGAAGUACCCUUCAGCUGAAGUGGCCCGAGCUGCCGACUGGAGGGACGUGUCGGAGCUUCUCAAGCCUCUUGGUCUCUACGAUCUCCGUGCAUGGAAUUCUCGGGUGCCAA | 4.15
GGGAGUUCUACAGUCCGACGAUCGCGCAUUGCUGUCUGUGCCUGUGUUGUGCACAGCCACAGUUAGUAACUGGGGAAGCUUCUGUACUAGUCUCCUUCAACGCAGCUGGCUUUGACUGAGUGCUUUGACAGUUUGGAAUUCUCGGGUGCCAA | 0.202
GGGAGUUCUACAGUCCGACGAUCUCCUAUCUUUUAUUUCAUUCAUAUCCUCCGCCCUUUUUGUCCUAGAGUGAGAGUUUGGAAGGUGUCCAAAUUUAAUGUAGACAUUAUCUUUUGGCUCUGAAGAAGCAAACUGGAAUUCUCGGGUGCCAA | 0.984
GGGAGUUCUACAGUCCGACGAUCUUGCAAAAAAACAAAACCUGAAGUUGGUUUAUUGAAAGAAUUAUAAGGAUAGCUUCUAGGGAUAUUAGUAAUAGAUUGCCAUGAUCCUGAAGCCUCUUCUCAGAACACUGUGGAAUUCUCGGGUGCCAA | 0.382
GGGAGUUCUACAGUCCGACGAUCAGAAUGGGAAUAUAUGUGUGCCUCCCAACAUUUACUGUUAAAGUGUGUUAUCUUUAUAUGUCAAACUGGUUGAACACUGUAAUGAGAAUAAACUGCACAGAGUUUAUUCUUGGAAUUCUCGGGUGCCAA | 0.856
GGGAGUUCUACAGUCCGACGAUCCUUAGCUGACAAAUUAUUGAUAAUUAAGAACUUGAAUUUGUGAUUCUUACUGCUAAUUAAAACCUAAGCAAGAAGUCUCAUGUAAUUCUGAUAGCAGAAUUGCAUUGUGUUGGAAUUCUCGGGUGCCAA | 0.412
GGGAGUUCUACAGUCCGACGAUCUGGGGUUUCUUUUCUGUUCUUUUCGGAGGAGAGGGCCCGAGAAGGGGCCAUACCAGGGCGCGGCGCUGGGUUGCCACACUUGGGAAAGCAGCCCGGAGCUGGGUGCUGGGUGGAAUUCUCGGGUGCCAA | 0.679
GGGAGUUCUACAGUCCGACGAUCUCCCUGAAAGUUGGCCCUUGGUGUCUAGUGGAGAAAAGUAGGCAUCUCCCAUCUGCUCACAGUAGCACCUCAGACUCCUAUGUCCCAAUGGCAGCAACAAUUUUGCCAUUUGGAAUUCUCGGGUGCCAA | 0.435
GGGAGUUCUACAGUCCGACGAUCAUAAAAUAAUUUUGACAUAACAGACAUGAACAGACAUAAGAACGGCUUCCAAUGUUAAUUGAUAAUCUAUAAAUAUCAUUUUGGAAUUUGACUGGUUCACAAAUAUAUCCUGGAAUUCUCGGGUGCCAA | 0.672
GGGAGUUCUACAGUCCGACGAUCUUUUUGUAUUCUGAUUGCCACGUUAAUCUGUAAUCGUUAAGUACCCAUGAAAGAAUGUGUUUCAGUAUCAGUGCUUUUUUGGUACUUUAACAAGUAUUGUAGGCACGGUGUGGAAUUCUCGGGUGCCAA | 0.46
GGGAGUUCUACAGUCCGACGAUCUGCCUGCUUUGCCUCCUCCUGUGUUUCCCUGCUCCAGGGCCACUUCCAGGGAUUACAUGGAGGAUCACCGAUGUCUUUUCUCAUGCCCACCAGAUAUCAAGUACUCAUGAUGGAAUUCUCGGGUGCCAA | 0.887
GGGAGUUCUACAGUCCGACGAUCGAAAGAGAAUAGUAAAUGCCUUUGGGAACACGGUUGAGAGCCAGCCAGGACGCAAGGGGAGCAAUGAAUGUCUGUGUCUGAUAUGCUCCUCCCAGGUUGGUGUCCCACUGUGGAAUUCUCGGGUGCCAA | 2.71

Sample 5 — method: RNA Bind-n-Seq; molecule type: RNA; sample: in vitro; tested at: not given; reference: input RNA pool; reading: higher = stronger binding
Target: RING finger protein unkempt homolog, zinc fingers 1-6, GST-SBP tag (UNK, Homo sapiens, UniProt Q9C0B0, residues 30-357)
UniProt Q9C0B0, sequence (30-357, looked up): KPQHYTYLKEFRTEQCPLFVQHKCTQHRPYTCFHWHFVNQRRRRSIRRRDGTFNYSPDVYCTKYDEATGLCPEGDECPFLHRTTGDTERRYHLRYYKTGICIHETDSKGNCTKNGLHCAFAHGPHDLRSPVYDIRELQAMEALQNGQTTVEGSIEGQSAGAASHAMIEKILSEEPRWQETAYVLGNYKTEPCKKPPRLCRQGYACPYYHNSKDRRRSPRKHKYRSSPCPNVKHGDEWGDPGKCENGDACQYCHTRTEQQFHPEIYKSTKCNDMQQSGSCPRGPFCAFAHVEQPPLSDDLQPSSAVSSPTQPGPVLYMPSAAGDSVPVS
Notes: RNA with constant flanks, human-mouse chimeric sites, ends assumed
Oligonucleotide | bound/input enrichment [ratio]
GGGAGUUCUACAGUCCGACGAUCUUUGUUUGUAACUUAUCUGUAAAAGGUGUUUCUCCCUACUGUCAAAAAAAUAUGCAUGUAUAGUAAUUAGGACUUCAUUCCUCCAUGUUUUCUUCCCUUAUCUUACUGUCAUUGUCCUUACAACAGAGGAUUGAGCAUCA | 1.03
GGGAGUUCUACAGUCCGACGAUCCAACCUCAGAGCCCUGACUUCCUGGAUAUUACCAACCCUAAAGCGGUAUUAGAAAAUGCAUUGAGAAACUUCGCCUGUCUGACGACUGGAGAUGUGAUUGCUAUCAACUACAAUGAGAAGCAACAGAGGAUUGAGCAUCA | 0.408
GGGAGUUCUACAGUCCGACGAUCUGACAAGCACGAGCAUCAGCCAUGCCUUUCCUUGACAUACAGAAAAAGCUGGGCAUCAGCCUGGACCGGCACUUUAUGUUCCUAAGCGCAGAACAGCCCUAUAAGAAGGCUGGUCGAUGCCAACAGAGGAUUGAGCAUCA | 0.138
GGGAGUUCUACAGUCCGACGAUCAUAGAUGAAAUUGAUGUGGACCAGGAAGGAAUUGCUGAAAUGAUCCUGGAUGAAAAUGCUAUUGCUCAGGUCCCACGCCCUGGCACAUCUUUGAAGCUCCCUGGAACUAACCAAACAGGACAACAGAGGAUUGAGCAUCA | 0.338
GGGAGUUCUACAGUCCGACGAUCCUGGCCUGGCCCUCCCCAGGGGCCUCCUUUCGUAUAGUCACUGCUUCUGCAUCAGAUACUUUCAGCUGCAACUCCCUACUGGGUGGGGCACCUAUCUGAGGCAGGGUGUUUUGGUACCCUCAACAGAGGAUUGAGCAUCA | 0.229
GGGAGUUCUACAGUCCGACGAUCGUGACUGGUGUUAAGAUUUCCCCUCAGCAAAGAAGUGCAGUAGUCACCAUAAUUCCAUCUAUAGUGAAUGCCAAUCAGAUUGUGGAGCUGGUCCCAGACCUCAGUUUAGACAUGGGAACUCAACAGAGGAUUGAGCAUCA | 6.02
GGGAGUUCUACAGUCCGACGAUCGGAAGUACAAUGAUGGAAAUAGAUGGCGACAAAGGCAAGCAGGGCGGGCCCACCUACUACAUAGACACCAAUGCCCUCCGCGUGCCCAGGGAGAACAUGGAGGCCAUCUCACCACUCAAGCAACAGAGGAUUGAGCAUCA | 0.237
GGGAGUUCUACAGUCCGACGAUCGAUCAUGGAACCAGAAUAGAAAUGAAGGAUGAGACUACCAGACGAGCCAAAACAGCUGCGCUACAGAAAAGUAAACUUAACCUUGCAGAGUUCCUUAAUGAAGAUACAAGUUAAGAGAGCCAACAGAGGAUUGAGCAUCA | 0.256
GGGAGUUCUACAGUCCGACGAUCGGGACUGAUUCAUUCCAAGGACAGGCCACCCCAUUUGAUGCCUGGACUGACGACAGUAUGGAAGGGCCUAGUCAAAAUGUUGAAGCUGAGUCAAUUCAGGAUGCCAUGAGUAUGGAAGAGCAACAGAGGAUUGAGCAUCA | 0.407
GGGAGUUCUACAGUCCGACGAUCCGGAGCCCUCCUCUCCCACAGGCCCAAGAUAUAACCCACCAGUGCCUUUUGUCUUCCCGUUAGCUUUGUCAAUCACGCCUGUCCUCUCACGCCCACACUCCCCAGCCAAAGUGGGGAGGGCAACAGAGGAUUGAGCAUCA | 8.9
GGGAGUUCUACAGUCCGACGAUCUCCUUGGACCCCAGUCAUAUAGGUGACCUGCAGAAAGCAGACACCAGUAGUCAAGGUGCUUUAGUGUUUCUCUCAAAGGACUACGAAAUAGAAAGUCAAAAUCCCCUGGCCUCUCCUACGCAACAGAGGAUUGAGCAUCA | 1.93
